Measured values from different studies.
Protocols differ between the studies behind these lines.
Cell line: SN12C

Compound = CCCN1CCN(c2ccc3[nH]c(-c4ccc5[nH]c(-c6cc(OC)c(OC)c(OC)c6)nc5c4)nc3c2)CC1; assay = SRB; setting = 10 µM, 48 h; measurement = growth percent; value = 85.4%
Compound = NNc1nc(-c2ccc(Cl)cc2)c2c(NC(=O)c3ccccc3)nnc-2[nH]1; assay = SRB; setting = 10 µM, NCI60 single-dose screen; scale = relative to: untreated; measurement = cell growth; value = 92.6%
Compound = O=C1NCCc2[nH]c(-c3ccncc3)cc21; assay = MTS; setting = NCI60 panel; measurement = IC50; value = 10 µM
Compound = C#C[C@@]1(O)[C@@H](CO)O[C@@H](n2cc(Br)c3c(N)ncnc32)[C@@H]1O; assay = SRB; setting = NCI-60 screen; measurement = TGI; value = > 100 µM
Compound = CCN(CC)c1ccc(C=NNC(=O)CSc2nc3ccccc3c(=O)n2Cc2ccc(S(N)(=O)=O)cc2)c(O)c1; assay = NCI five-dose screen; measurement = TGI; value = > 100 µM
Compound = CN1CCN(c2ccc3[nH]c(-c4ccc5[nH]c(-c6ccc(C(F)(F)F)cc6)nc5c4)nc3c2)CC1; assay = SRB; setting = 10 µM, 48 h; measurement = growth percent; value = 80.3%
Compound = CC(=O)O[C@H]1C(=O)[C@@]2(C)[C@H]([C@H](OC(=O)c3ccccc3)[C@]3(O)C[C@H](OC(=O)[C@H](O)[C@@H](NC(=O)c4ccccc4)c4ccccc4)C(C)=C1C3(C)C)[C@]1(OC(C)=O)CO[C@@H]1C[C@@H]2O; assay = sulforhodamine B; system = Renal cancer; setting = NCI60 screen; measurement = TGI; value = 1 µM
Compound = Cc1cc(-c2ccccc2)n(-c2nc(-c3ccc(Cl)cc3)c3c(NC(=O)c4ccccc4)nnc-3[nH]2)n1; assay = SRB; setting = 10 µM, NCI60 single-dose screen; scale = relative to: untreated; measurement = cell growth; value = 87.1%
Compound = C#C[C@@]1(O)[C@@H](CO)O[C@@H](n2cc(I)c3c(N)ncnc32)[C@@H]1O; assay = SRB; setting = NCI-60 screen; measurement = TGI; value = > 100 µM
Compound = O=C(Nc1nnc2n3c(=S)[nH][nH]c3nc(-c3ccc(Cl)cc3)c1-2)c1ccccc1; assay = SRB; setting = 10 µM, NCI60 single-dose screen; scale = relative to: untreated; measurement = cell growth; value = 97.1%
Compound = S=C([S][Au-][P+](CCCCCC[P+]([Au-][S]C(=S)n1cccn1)(c1ccccc1)c1ccccc1)(c1ccccc1)c1ccccc1)n1cccn1; assay = cell growth, NCI-60 screen; setting = renal cancer; measurement = log10 TGI; value = > -4
Compound = CCCCN1CCN(c2ccc3nc(-c4ccc5nc(-c6cc(OC)ccc6OC)[nH]c5c4)[nH]c3c2)CC1; assay = SRB; setting = 10 µM, 48 h; measurement = growth percent; value = 99.1%
Compound = Cn1cncc1C1=CN(c2ncnc3[nH]cnc23)CCS1; setting = renal cancer; measurement = TGI; value = 67.6 µM
Compound = CCCN1CCN(c2ccc3[nH]c(-c4ccc5[nH]c(-c6ccc(OCC)c(OCC)c6)nc5c4)nc3c2)CC1; assay = SRB; setting = 10 µM, 48 h; measurement = growth percent; value = -37.5%
Compound = O=C(Nc1nnc2n3c(Cc4ccccc4)n[nH]c3nc(-c3ccc(Cl)cc3)c1-2)c1ccccc1; assay = SRB; setting = 10 µM, NCI60 single-dose screen; scale = relative to: untreated; measurement = cell growth; value = 104%

For quick reference, copied from above:
Compound = C#C[C@@]1(O)[C@@H](CO)O[C@@H](n2cc(Br)c3c(N)ncnc32)[C@@H]1O; assay = SRB; setting = NCI-60 screen; measurement = TGI; value = > 100 µM
